# Assay results collected from several papers.
# Protocols differ between the studies behind these lines. ± gives the spread as reported.
# Cell line: K562
Structure (SMILES),test,conditions,quantity,result
O=c1cc(-c2ccccc2)oc2cc(O)cc(O)c12,"cell growth or viability, ATP luminescence",24 h,IC50,340 µM
COc1ccc(-c2cc(-c3ccccc3)nc(N)n2)cc1,"cell growth or viability, MTT",48 h,IC50,61.9 µM
CC(=O)O[C@H]1C(=O)[C@@]2(C)[C@H]([C@H](OC(=O)c3ccccc3)[C@]3(O)C[C@H](OC(=O)[C@H](O)[C@@H](NC(=O)c4ccccc4)c4ccccc4)C(C)=C1C3(C)C)[C@]1(OC(C)=O)CO[C@@H]1C[C@@H]2O,"phosphorylation increase, phosphoproteomics, refers to: MAP7, MAP7D3, ARHGEF2",30 min,EC50,~1 µM
COc1cc(C(=O)c2sc3c(C)cccc3c2N)cc(OC)c1OC,cell growth or viability,,IC50,0.03 µM
Cc1cn(-c2cc(NC(=O)c3ccc(C)c(Nc4nccc(-c5cccnc5)n4)c3)cc(C(F)(F)F)c2)cn1,annexin V staining,"72 h, continuous exposure",threshold concentration for apoptosis,25 nM
COc1ccc2c(NC(C)=O)c(C(=O)c3cc(OC)c(OC)c(OC)c3)oc2c1,flow cytometry,IC50,sub-G1 cells,12 ± 3%
COc1ccc(-c2cc(-c3ccc(O)cc3)nc(N)n2)cc1,"cell growth or viability, MTT",48 h,IC50,43.2 µM
COc1cc2c(NC3CCN(CCCC(=O)NCCCCCCCCCCCC(=O)N[C@H](C(=O)N4C[C@H](O)C[C@H]4C(=O)NCc4ccc(-c5scnc5C)cc4)C(C)(C)C)CC3)nc(N3CCC(F)(F)CC3)nc2cc1OCCCN1CCCC1,"cell growth or viability, CCK-8",7 days,IC50,2 µM
CC(C)C[C@H](NC(=O)[C@@H](O)[C@H](N)Cc1ccccc1)C(=O)O,cell growth or viability,580 µM,inhibition,19.6%
COc1cccc(-c2cc(-c3ccc(O)cc3)nc(N)n2)c1,"cell growth or viability, MTT",48 h,IC50,48.4 µM
COc1ccc2c(NC(=O)CBr)c(C(=O)c3cc(OC)c(OC)c(OC)c3)oc2c1,flow cytometry,IC50,sub-G1 cells,15 ± 2%
O=c1c(O)c(-c2ccc(O)c(O)c2)oc2cc(O)cc(O)c12,"cell growth or viability, ATP luminescence",24 h,IC50,33 µM
COc1ccc2c(N)c(C(=O)c3cc(OC)c(OC)c(OC)c3)oc2c1,cell growth or viability,,IC50,0.008 µM
Cc1cc(O)c2c(c1)C(=O)c1cc(O)cc(O)c1C2=O,"cell growth or viability, ATP luminescence",24 h,IC50,13 µM
COc1cccc(-c2cc(-c3ccccc3)nc(N)n2)c1,"cell growth or viability, MTT",48 h,IC50,32.4 µM

# A few entries again:
Structure (SMILES),test,conditions,quantity,result
COc1cc(C(=O)c2sc3c(C)cccc3c2N)cc(OC)c1OC,cell growth or viability,,IC50,0.03 µM
